Results collected from several papers.
Compare with care: the assays were run in different laboratories. “And” joins repeats or separate records; there may be more than shown. Numbers after ± are the reported error.

SMILES	assay	system	conditions	scale	endpoint	value
COc1ccnc(C(=O)N[C@@H](CO)C(=O)O[C@@H](C)[C@H](O)[C@@H](Cc2ccccc2)C(=O)O)c1O		lactating goat, female, kidney	oral, 21.3 mg/kg bw/day, 5 days		share of TRR	16.8 to 32.7%
CCCCCN1C[C@H](O)[C@@H](O)[C@H](O)[C@@H]1CO	LC-MS/MS	Hexb-/- mice, male, brain	30 mg/kg/day		mean brain concentration	37 ng/g
Cc1ccc(Sc2ccccc2N2CCNCC2)c(C)c1	item: abdominal pain	healthy adult men	oral, 5 mg daily, 12 days		participants with TEAE	0%
CCCCc1ccc(C#Cc2ccc(OCC)cc2)cc1		rat, fetus	5000 ng/mL in perfusate, high dose, mixture of 21 LCMs		fetal accumulation	0.833 ± 0.753 ng/g
Cn1cnc2c(F)c(Nc3ccc(Br)cc3Cl)c(C(=O)NOCCO)cc21		human, plasma	oral, dose not given, first-order absorption		central volume of distribution	36.9 L
CCc1nc(C(N)=O)c(Nc2ccc(N3CCC(N4CCN(C)CC4)CC3)c(OC)c2)nc1NC1CCOCC1		Japanese patients, plasma	oral, 200 mg, cycle 0 day -2, single dose, median		AUC(0-24)	3620 ng·h/mL
O=C(Nc1nc2cccc(-c3ccc(CN4CCS(=O)(=O)CC4)cc3)n2n1)C1CC1		rheumatoid arthritis patients	oral, 100 mg twice daily, 4 weeks, regardless of relatedness		patients with immune system disorders	0%
CCN(CC)CCNC(=O)c1c(C)[nH]c(/C=C2\C(=O)Nc3ccc(F)cc32)c1C		FaSSIF	literature solubility over dose		dose-adjusted solubility	0.000211 mL⁻¹
CC(=O)N[C@@H](CC(N)=O)C(=O)N[C@@H](CC(N)=O)C(=O)N[C@@H](CC(C)C)C(=O)N[C@H]1CSSC[C@@H](C(=O)N[C@H](C(N)=O)[C@@H](C)O)NC(=O)[C@H](CCCNC(=N)N)NC(=O)[C@H](Cc2c[nH]cn2)NC(=O)[C@H](Cc2cccc3ccccc23)NC(=O)CNC(=O)[C@H](Cc2c[nH]c3ccccc23)NC(=O)[C@H](CC(=O)O)NC(=O)[C@H](CCC(N)=O)NC(=O)[C@H](Cc2cccc3ccccc23)NC(=O)[C@H](C(C)C)NC1=O	isocratic RP-HPLC, C18	32% acetonitrile, phosphate pH 7.4, 1% TFA	25 °C		retention factor	5.899 ± 0.004
CN1C[C@H](COc2nccc3c(NCc4ccco4)cc(Cl)nc23)OC1=O		rabbit NZW female, isolated Langendorff heart	10 µM, 15 min		RR interval	404 ms
Cl.[2H]C([2H])([2H])CC(=O)c1cnc(NC(=O)C2CC2)cc1Nc1cccc(-c2ncn(C([2H])([2H])[2H])n2)c1OC		human, fasted, multiple dose	oral, 10 mg once daily, tablet, day 14, geometric mean		half-life	9.22 h
O=C1Nc2ccc(Cl)cc2[C@@](C#CC2CC2)(C(F)(F)F)O1		human, plasma	oral, 600 mg, day 30, mean		trough plasma concentration	2790 ng/mL
CN[C@@H](C)C(=O)N[C@H]1CN(S(=O)(=O)c2cccc(S(=O)(=O)N3CC[C@H]4CC[C@@H](C(=O)NC(c5ccccc5)c5ccccc5)N4C(=O)[C@@H](NC(=O)[C@H](C)NC)C3)c2)CC[C@H]2CC[C@@H](C(=O)NC(c3ccccc3)c3ccccc3)N2C1=O		human, plasma	intravenous infusion once weekly, 20 to 45 mg, infusion 30 min		median Tmax	0.5 to 0.52 h
CCCCC1=NC2(CCCC2)C(=O)N1Cc1ccc(-c2ccccc2S(=O)(=O)Nc2noc(C)c2C)c(COCC)c1		healthy adult volunteers, plasma	oral, 100 mg, single dose, fasted, crushed tablet		AUC(0-inf)	25100 ng·h/mL
CC=CC1CCC(C2CCC(CCC)CC2)CC1 (centres unmarked)		rat, fetus	5000 ng/mL in perfusate, high dose, mixture of 21 LCMs		fetal accumulation	1.29 ± 1.09 ng/g
Cc1nc(-c2ccc(OCC(C)C)c(C#N)c2)sc1C(=O)O		KM mouse, chronic hyperuricaemia model	dose not given, day 27		body weight	38.1 g and 35.9 g and 44.6 g and 34.4 g and 41.2 g and 40.1 g
COc1cc(Nc2ncc3c(n2)-c2ccc(Cl)cc2C(c2c(F)cccc2OC)=NC3)ccc1C(=O)O	item: Hyponatremia, grade 2	cancer patients, phase 1/2	oral, dose not given, together with: pembrolizumab		patients with adverse event	8%
[18F]c1ccc(-c2ccc3c(c2)[nH]c2ccncc23)cn1	ex vivo biodistribution	B6SJL mouse, normal, feces	intravenous, 30 min		SUV	2.49 ± 2.99
CCN1/C(=C/C(C)=O)Sc2ccc(F)cc21		cynomolgus monkey	oral, 30 mg/kg, 2 h post-dose		QTc interval (Bazett)	326 ± 8 ms
[11CH3]Oc1cccc(CCc2cc(O)c(=O)[nH]n2)c1	dynamic PET	Sprague-Dawley rat, brain	0 to 60 min, baseline		peak brain uptake	~0.2 SUV
Cc1ccc([C@@H]2O[C@H](CO)[C@@H](O)[C@H](O)[C@H]2O)cc1Cc1ccc(-c2ccc(F)cc2)s1	item: inorganic phosphorus	Japanese type 2 diabetes patients	100 mg, day 2, 24 h urine collection	reference: baseline	urinary phosphate excretion change	51 mg
CCn1cc(C(=O)N2CCOCC2)c(=O)c2cc(NC3Cc4ccccc4C3)cnc21		human, fed	oral suspension, 2000 mg single dose, arithmetic mean		half-life	5.71 h
C=CCN1CC(=O)N2[C@@H](Cc3ccc(O)cc3F)C(=O)N(Cc3cccc(N4CC(N5CCN(CC)CC5)C4)n3)C[C@@H]2N1C(=O)NCc1ccccc1	item: Vomiting	advanced solid tumour patients	all doses, dose-escalation part, grade ≥3		treatment-related adverse events	0%
CC(C)(C(=O)N1CCOc2c(C#N)cncc2C1)C(F)F	item: medical device site dermatitis	human, both sexes	oral, 10 mg once daily, 14 days, multiple ascending dose		subjects with TEAE	0%
CC(C(=O)NCC(=O)NCC(CNC(=O)CNC(=O)C(C)N1CCN(CC(=O)[O-])CCN(CC(=O)[O-])CCN(CC(=O)[O-])CC1)(CNC(=O)CNC(=O)C(C)N1CCN(CC(=O)[O-])CCN(CC(=O)[O-])CCN(CC(=O)[O-])CC1)CNC(=O)CNC(=O)C(C)N1CCN(CC(=O)[O-])CCN(CC(=O)[O-])CCN(CC(=O)[O-])CC1)N1CCN(CC(=O)[O-])CCN(CC(=O)[O-])CCN(CC(=O)[O-])CC1.[Gd+3].[Gd+3].[Gd+3].[Gd+3] (centres unmarked)		cynomolgus monkey, cerebellum	dose not given, day 58, PK group		lanthanide tissue concentration	< 0.007 nmol/g

SMILES	assay	system	conditions	scale	endpoint	value
COc1cc(C)c(-c2c(C)cc(OC)c3c(=O)cc(-c4ccc(N(C)C)cc4)oc23)c2oc(-c3ccc(N(C)C)cc3)cc(=O)c12	reverse phase HPLC	DMSO	25 mg/mL, 24 h, 22 °C		purity	95.8%
COc1ccc2c(=O)n(C)c(-c3ccccc3)nc2c1		Sprague-Dawley rat, skeletal muscle	oral, 30 mg/kg, 0.25 h		tissue concentration	not detected
CCc1cc(C(=O)NC)c2nccc(N3CCc4c(cc(Cn5ccnc5)cc4-c4cn(C)nc4C(F)(F)F)C3=O)c2c1		Sprague Dawley rats	oral, 100 mg/kg once daily, 7 days	reference: vehicle	serum cholesterol change	3.6%
NC1(C(=O)N[C@@H](CCO)c2ccc(Cl)cc2)CCN(c2nc[nH]c3nccc2-3)CC1		metastatic CRPC patients	320 mg b.i.d., grade 3 to 4, treatment-related, together with: enzalutamide 160 mg daily		incidence of Dysuria	0%
Cn1cc(Nc2nccc(-c3ccc4c(c3)CN(C3COC3)CC[C@H]4NC(=O)c3cn(C(C)(C)C)nn3)n2)cn1		human, whole blood	150 mg twice daily, day 14	reference: pre-dose baseline	naive B cell count change	30.7%
CNCc1ccc(-c2[nH]c3cc(F)cc4c3c2CCNC4=O)cc1		human patients	oral, 240 mg twice daily, all grades		neutropenia incidence	0%
COc1c(N2C[C@@H]3CCCN[C@@H]3C2)c(F)cc2c(=O)c(C(=O)O)cn(C3CC3)c12		healthy volunteers	oral, 400 mg single dose, day 5, 24.00 h		QTcI change from baseline	2.1 ms
Cc1cc(Nc2ccc(S(F)(F)(F)(F)F)cc2)n2nc(C(C)(F)F)nc2n1		Plasmodium falciparum malaria patients	oral, 400 mg		adverse event Pyrexia	30.8%
CCO[C@H]1CCN(Cc2c(OC)cc(C)c3[nH]ccc23)[C@H](c2ccc(C(=O)O)cc2)C1		PNH patients, active haemolysis	oral, 200 mg, 8 weeks, treatment		incidence musculoskeletal chest pain	0%
C[C@H]1CN(c2n[nH]c3nc(N[C@H]4CC[C@H](NS(=O)(=O)CCC(F)(F)F)CC4)ncc23)CCO1		male Han Wistar rat	oral, 1000 mg/kg/day, 7 days	reference: vehicle	alkaline phosphatase activity	1.32 fold
C=CC(=O)N1CCC([C@@H]2CCNc3c(C(N)=O)c(-c4ccc(Oc5ccccc5)cc4)nn32)CC1		Sprague-Dawley rats, plasma	oral, 16 mg/kg, together with: posaconazole 40 mg/kg		t1/2	2.77 ± 0.34 h
O=C1NCCc2nc(OCc3cccc(F)c3)ccc21	item: loss of Grasping	Sprague-Dawley rat male	oral, 100 mg/kg, 0 min	reference: baseline, direction not given	Irwin test score	0.2
CCOc1c([C@H](C)n2nc(C)c3c(N)ncnc32)cc(Cl)c(F)c1[C@@H]1CNC(=O)C1	ECG	previously treated B-cell malignancy patients	oral, 45 mg once daily, baseline below thresholds		observations with HR above 100 bpm	0%
CC[C@H](C)[C@H](NC(C)=O)C(=O)N[C@H]1CSSC[C@@H](C(=O)N[C@H](C(N)=O)[C@@H](C)O)NC(=O)[C@H](CCCNC(=N)N)NC(=O)[C@H](Cc2c[nH]cn2)NC(=O)[C@H](C)NC(=O)CNC(=O)[C@H](Cc2c[nH]c3ccccc23)NC(=O)[C@H](CC(=O)O)NC(=O)[C@H](CCC(N)=O)NC(=O)[C@H](Cc2c[nH]c3ccccc23)NC(=O)[C@H](C(C)C)NC1=O	RP-HPLC, C18	28% acetonitrile isocratic	pH 7.4		retention factor	2.668 ± 0.007
Cc1nn(CC(F)(F)F)cc1Nc1ncc(Br)c(NCCc2cnc[nH]2)n1	PAMPA	PBS	5 h, pH 7.4		effective permeability	1.51 ×10⁻⁶ cm/s
Cc1cc(-c2nccc3c2ccn3CC(=O)Nc2ccc(-c3cnccn3)cn2)ccn1		human, plasma	oral, 15 mg once daily, day 16, geometric mean		terminal half-life	15.7 h
CC[C@H](C)CCCCC(=O)N[C@@H](CCN)C(=O)N[C@H](C(=O)N[C@@H](CCN)C(=O)N[C@H]1CCNC(=O)[C@H]([C@@H](C)O)NC(=O)[C@H](CCN)NC(=O)[C@H](CCN)NC(=O)[C@H](CC(C)C)NC(=O)[C@@H](Cc2ccccc2)NC(=O)[C@H](CCN)NC1=O)[C@@H](C)O		human, normal renal function, urine	intravenous, 0.75 mg/kg, 0-12 h, arithmetic mean		urinary excretion	1.67%
CNC(=O)c1ccc(-c2cnc3ncc(Cc4ccc5ncccc5c4)n3n2)cc1F		healthy human subjects	oral, dose not given, all grades, together with: rifampicin	reference: subjects	treatment-related diarrhoea incidence	11.5%
C[C@@H](Oc1ccc(S(C)(=O)=O)cc1C(=O)N1C[C@@H]2C[C@]2(c2cc(C(F)(F)F)on2)C1)C(F)(F)F		young humans, plasma	oral, 10 mg once daily, single dose, geometric mean		half-life	43.7 h
CO[C@H]1C[C@@H]2CC[C@@H](C)[C@@](O)(O2)C(=O)C(=O)N2CCCC[C@H]2C(=O)O[C@H]([C@H](C)C[C@@H]2CC[C@@H](O)[C@H](OC)C2)CC(=O)[C@H](C)/C=C(\C)[C@@H](O)[C@@H](OC)C(=O)[C@H](C)C[C@H](C)/C=C/C=C/C=C/1C		healthy adult horses	oral, 0.06 mg/kg, 6 h		heart rate	35 ± 3.3 beats/min
O=C(O)CCC(=O)O.[2H]C([2H])([2H])Oc1cc(C)c2[nH]ccc2c1CN1CC[C@@H](C2CC2)C[C@H]1c1ccc(C(=O)O)cc1		healthy Chinese subjects	200 mg, single ascending dose		TEAE urinary sediment detected	0%
Cc1cn(-c2cc(NC(=O)c3ccc(C)c(Nc4nccc(-c5cccnc5)n4)c3)cc(C(F)(F)F)c2)cn1	population PK model, bootstrap	human, both sexes, plasma	oral, dose not given		central volume of distribution (V1)	556 L
Cn1cc([C@H]2C[C@H]3CSC(N)=N[C@@]3(c3ccc(F)cc3F)CO2)cn1		mouse	subcutaneous, 10 mg/kg, 13 h		CSF concentration	not detected
O=C(Nc1cnccc1Cl)N1CCN(Cc2ccc3c(c2)OC(F)(F)O3)CC1		healthy young men, plasma	oral, 10 mg once daily, day 1		AUC(0-24)	488 ng·h/mL
CNC(=O)c1ccc(-c2cnc3ncc(Cc4ccc5ncccc5c4)n3n2)cc1F	item: Constipation, all grades	cancer patients	oral, 600 mg twice daily, other expansion cohort, any causality		patients with adverse event	11%

Excerpt of the above:
SMILES	assay	system	conditions	scale	endpoint	value
CCN1/C(=C/C(C)=O)Sc2ccc(F)cc21		cynomolgus monkey	oral, 30 mg/kg, 2 h post-dose		QTc interval (Bazett)	326 ± 8 ms
[11CH3]Oc1cccc(CCc2cc(O)c(=O)[nH]n2)c1	dynamic PET	Sprague-Dawley rat, brain	0 to 60 min, baseline		peak brain uptake	~0.2 SUV
Cc1ccc([C@@H]2O[C@H](CO)[C@@H](O)[C@H](O)[C@H]2O)cc1Cc1ccc(-c2ccc(F)cc2)s1	item: inorganic phosphorus	Japanese type 2 diabetes patients	100 mg, day 2, 24 h urine collection	reference: baseline	urinary phosphate excretion change	51 mg
CCn1cc(C(=O)N2CCOCC2)c(=O)c2cc(NC3Cc4ccccc4C3)cnc21		human, fed	oral suspension, 2000 mg single dose, arithmetic mean		half-life	5.71 h
C=CCN1CC(=O)N2[C@@H](Cc3ccc(O)cc3F)C(=O)N(Cc3cccc(N4CC(N5CCN(CC)CC5)C4)n3)C[C@@H]2N1C(=O)NCc1ccccc1	item: Vomiting	advanced solid tumour patients	all doses, dose-escalation part, grade ≥3		treatment-related adverse events	0%
